Experimental data pooled from the literature.
Every numbered part comes from another study and shows a few of its results, in no order. Several values in a cell are separate wells, animals, samples, runs or records.
Sequence of UniProt P00519 (whole entry, unmodified, looked up): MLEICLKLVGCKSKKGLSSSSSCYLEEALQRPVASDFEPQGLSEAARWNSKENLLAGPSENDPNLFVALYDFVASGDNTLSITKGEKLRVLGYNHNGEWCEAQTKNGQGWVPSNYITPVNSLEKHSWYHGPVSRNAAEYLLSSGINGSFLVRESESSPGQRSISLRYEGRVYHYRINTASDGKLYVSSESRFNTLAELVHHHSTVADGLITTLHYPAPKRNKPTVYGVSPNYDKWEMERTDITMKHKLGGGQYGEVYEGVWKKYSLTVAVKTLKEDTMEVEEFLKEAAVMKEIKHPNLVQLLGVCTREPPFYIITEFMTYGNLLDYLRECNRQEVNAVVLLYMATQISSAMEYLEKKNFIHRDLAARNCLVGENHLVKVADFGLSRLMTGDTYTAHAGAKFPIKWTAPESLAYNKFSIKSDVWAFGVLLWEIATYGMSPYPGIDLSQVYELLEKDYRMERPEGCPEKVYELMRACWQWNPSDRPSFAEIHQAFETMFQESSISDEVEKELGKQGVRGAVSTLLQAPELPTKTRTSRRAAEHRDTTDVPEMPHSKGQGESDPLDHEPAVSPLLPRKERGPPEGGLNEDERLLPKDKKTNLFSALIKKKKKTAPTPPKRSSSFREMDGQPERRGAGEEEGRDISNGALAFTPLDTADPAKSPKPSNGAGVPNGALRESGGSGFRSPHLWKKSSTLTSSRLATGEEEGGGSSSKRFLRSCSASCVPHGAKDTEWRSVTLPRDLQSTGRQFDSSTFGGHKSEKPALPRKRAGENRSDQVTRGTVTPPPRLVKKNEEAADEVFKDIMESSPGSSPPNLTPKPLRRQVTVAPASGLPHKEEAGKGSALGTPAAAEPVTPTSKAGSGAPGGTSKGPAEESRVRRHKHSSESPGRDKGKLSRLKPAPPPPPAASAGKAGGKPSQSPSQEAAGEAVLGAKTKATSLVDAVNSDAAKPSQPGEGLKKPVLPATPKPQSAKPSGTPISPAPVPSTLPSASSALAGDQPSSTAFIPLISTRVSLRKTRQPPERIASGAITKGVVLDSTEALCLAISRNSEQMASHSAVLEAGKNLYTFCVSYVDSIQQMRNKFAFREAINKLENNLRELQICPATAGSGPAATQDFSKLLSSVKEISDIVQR
Sequence of UniProt Q92630 (whole entry, looked up): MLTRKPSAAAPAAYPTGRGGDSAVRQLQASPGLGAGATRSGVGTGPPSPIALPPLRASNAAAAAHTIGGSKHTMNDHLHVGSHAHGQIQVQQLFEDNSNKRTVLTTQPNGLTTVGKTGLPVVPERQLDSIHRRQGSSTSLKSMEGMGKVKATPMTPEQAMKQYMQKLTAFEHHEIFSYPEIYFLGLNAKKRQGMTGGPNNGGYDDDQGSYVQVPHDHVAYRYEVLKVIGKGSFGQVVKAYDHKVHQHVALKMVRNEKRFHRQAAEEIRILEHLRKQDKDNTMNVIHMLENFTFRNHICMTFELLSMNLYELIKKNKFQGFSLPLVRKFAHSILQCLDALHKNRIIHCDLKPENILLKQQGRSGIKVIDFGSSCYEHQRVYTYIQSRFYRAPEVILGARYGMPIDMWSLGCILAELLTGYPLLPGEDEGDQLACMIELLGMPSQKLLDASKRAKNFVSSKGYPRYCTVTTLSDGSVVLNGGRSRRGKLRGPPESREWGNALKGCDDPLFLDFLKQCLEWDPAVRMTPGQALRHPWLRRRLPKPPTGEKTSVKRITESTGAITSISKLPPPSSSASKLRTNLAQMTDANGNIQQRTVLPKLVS
Sequence of UniProt P42336 (whole entry, unmodified, looked up): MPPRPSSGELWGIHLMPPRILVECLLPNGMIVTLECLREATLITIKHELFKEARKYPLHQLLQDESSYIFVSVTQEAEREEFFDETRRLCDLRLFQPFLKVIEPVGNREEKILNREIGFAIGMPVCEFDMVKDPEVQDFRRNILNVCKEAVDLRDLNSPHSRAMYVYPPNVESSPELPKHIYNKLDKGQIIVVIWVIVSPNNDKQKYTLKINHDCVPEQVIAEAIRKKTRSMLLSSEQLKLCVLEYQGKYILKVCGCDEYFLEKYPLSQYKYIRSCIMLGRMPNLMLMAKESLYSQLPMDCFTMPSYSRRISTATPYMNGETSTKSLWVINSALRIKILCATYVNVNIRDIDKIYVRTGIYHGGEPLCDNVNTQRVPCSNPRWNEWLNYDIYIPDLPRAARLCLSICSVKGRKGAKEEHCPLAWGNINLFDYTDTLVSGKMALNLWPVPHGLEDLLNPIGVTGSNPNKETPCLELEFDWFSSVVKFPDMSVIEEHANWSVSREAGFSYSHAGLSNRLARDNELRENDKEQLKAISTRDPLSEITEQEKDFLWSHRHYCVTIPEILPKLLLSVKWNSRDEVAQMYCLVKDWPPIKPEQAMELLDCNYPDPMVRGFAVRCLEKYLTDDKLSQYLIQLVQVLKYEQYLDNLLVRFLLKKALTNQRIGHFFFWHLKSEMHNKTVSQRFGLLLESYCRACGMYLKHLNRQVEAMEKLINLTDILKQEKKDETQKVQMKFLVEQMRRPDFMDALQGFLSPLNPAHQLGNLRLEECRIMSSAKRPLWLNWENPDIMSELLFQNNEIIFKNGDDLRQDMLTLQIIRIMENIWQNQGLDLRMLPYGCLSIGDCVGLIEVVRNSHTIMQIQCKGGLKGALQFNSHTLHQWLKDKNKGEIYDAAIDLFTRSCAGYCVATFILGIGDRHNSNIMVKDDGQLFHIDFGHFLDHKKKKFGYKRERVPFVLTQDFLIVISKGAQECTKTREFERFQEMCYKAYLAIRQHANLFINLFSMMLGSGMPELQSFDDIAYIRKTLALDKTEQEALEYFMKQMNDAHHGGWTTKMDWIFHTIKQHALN
Sequence of UniProt P41743 (whole entry, looked up): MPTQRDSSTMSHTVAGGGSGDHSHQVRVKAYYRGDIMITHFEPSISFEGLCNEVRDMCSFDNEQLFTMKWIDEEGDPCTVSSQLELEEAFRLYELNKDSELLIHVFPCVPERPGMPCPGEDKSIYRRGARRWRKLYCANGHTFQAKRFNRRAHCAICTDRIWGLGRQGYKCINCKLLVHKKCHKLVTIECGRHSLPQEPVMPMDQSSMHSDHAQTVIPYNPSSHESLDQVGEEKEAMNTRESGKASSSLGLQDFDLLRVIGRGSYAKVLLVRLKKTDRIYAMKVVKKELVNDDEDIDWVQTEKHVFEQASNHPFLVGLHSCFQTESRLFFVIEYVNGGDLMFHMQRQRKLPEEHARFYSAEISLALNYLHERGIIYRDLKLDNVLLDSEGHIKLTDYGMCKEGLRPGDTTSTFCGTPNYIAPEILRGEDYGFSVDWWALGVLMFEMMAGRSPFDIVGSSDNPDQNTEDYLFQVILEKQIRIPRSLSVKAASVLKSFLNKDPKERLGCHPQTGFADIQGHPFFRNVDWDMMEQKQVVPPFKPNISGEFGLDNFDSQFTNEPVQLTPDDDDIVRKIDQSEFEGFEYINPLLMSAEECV
Sequence of UniProt Q6DT37 (whole entry, looked up): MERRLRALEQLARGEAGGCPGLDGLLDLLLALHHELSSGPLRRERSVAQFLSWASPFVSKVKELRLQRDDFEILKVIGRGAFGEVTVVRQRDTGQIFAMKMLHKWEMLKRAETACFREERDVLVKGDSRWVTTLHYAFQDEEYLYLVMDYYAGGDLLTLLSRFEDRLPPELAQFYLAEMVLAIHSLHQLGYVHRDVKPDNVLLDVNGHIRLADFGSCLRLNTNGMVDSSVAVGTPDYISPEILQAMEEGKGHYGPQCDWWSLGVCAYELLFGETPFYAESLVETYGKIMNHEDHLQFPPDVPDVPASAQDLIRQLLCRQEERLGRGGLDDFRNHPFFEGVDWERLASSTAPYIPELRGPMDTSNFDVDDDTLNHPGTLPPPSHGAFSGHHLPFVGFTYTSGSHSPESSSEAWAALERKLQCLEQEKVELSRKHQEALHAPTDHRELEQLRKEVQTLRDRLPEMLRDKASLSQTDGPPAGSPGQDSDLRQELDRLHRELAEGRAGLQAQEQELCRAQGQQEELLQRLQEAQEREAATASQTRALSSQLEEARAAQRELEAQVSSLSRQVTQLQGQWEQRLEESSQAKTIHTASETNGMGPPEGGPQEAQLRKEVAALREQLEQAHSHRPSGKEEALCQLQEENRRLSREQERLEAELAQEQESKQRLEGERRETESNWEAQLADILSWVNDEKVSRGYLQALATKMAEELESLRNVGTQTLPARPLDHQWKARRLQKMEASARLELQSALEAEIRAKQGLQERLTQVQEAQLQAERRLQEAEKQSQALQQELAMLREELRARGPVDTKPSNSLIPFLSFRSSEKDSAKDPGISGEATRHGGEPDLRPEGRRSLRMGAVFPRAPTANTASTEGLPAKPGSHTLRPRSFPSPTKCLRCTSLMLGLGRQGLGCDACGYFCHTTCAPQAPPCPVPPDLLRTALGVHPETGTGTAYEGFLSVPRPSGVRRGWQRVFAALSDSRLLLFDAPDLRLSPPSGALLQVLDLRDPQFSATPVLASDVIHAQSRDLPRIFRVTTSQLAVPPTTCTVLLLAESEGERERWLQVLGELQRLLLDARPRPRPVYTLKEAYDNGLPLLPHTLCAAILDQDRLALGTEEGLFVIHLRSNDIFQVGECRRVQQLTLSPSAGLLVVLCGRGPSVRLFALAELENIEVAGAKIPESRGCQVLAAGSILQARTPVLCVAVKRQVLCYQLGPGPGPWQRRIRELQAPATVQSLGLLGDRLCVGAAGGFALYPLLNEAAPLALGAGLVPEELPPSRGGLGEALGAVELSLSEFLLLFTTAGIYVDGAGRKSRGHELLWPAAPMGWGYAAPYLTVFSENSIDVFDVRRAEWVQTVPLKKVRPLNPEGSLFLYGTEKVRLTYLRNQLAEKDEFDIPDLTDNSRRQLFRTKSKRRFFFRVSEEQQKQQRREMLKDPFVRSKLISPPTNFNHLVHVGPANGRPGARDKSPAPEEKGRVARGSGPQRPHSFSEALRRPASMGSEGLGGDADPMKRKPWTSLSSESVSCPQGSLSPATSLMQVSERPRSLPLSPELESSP

Sample 1
Species: mouse
Matrix: microsomes or S9
Tested at: 2 µM
Time: 0.5 h
SMILES	remaining compound [%]
COCCN(CC(=O)N1N=C(c2ccccc2F)CC1c1cccs1)C(=O)CC(C)(C)C (stereo not drawn)	1.48
Cc1ccc(-n2ccnc2S(=O)(=O)Cc2noc(C)n2)c(C)c1	0.0743
COc1cccc(NC(=O)Cn2cnc3c(sc4nc5c(cc43)COC(C)(C)C5)c2=O)c1	87.4
CCn1nc(C)c(CNC(=O)NCCCOC)c1C	98.4
O=C(CCn1[nH]c(=O)c2ccccc2c1=O)NN(Cc1ccccc1)Cc1ccccc1	32.8
CC1CCN(CCNS(=O)(=O)c2ccc(-c3ccc(=O)[nH]n3)s2)CC1	98.5
c1ccc(-n2nnnc2Oc2ccc(-c3nc4ccccc4s3)cc2)cc1	97.1
CCCc1nn2c(N)c(C#N)nnc2c1-c1ccc(F)cc1	33.8
CCn1cnc2c(Nc3ccc(OC)c(Cl)c3)nc(Cl)nc21	0
O=C(CCCc1c[nH]c2ccccc12)Nc1cccc(C(=O)O)c1	95.5
c1ccc(OCC2=NN=C(COc3ccccc3)NN2)cc1	69.7
O=C(C[C@H]1CCC[C@@H](N2CCCC2)[C@@H]1C(=O)c1cccs1)c1cccs1	0.172
CCOc1ccc(Nc2c(-c3cccc(O)c3)nc3ccccn23)cc1	0.122

Sample 2
Structure (SMILES): CC(=O)O/N=C1/C(c2c(O)[nH]c3cc(Br)ccc23)=Nc2ccccc21
Read-out: enzyme activity
Mode: inhibitor
Tested at: 0.5 µM
Reference: control
target	remaining activity
LYN (Homo sapiens, UniProt P07948)	28.1%
MAP4K2 (Homo sapiens, UniProt Q12851)	44%
LRRK2 (Homo sapiens, UniProt Q5S007)	87.6%
AKT3 (Homo sapiens, UniProt Q9Y243)	95.1%
MAP3K10 (Homo sapiens, UniProt Q02779)	92.3%
PLK2 (Homo sapiens, UniProt Q9NYY3)	100%
EPHA5 (Homo sapiens, UniProt P54756)	102%
WNK2 (Homo sapiens, UniProt Q9Y3S1)	98.6%
PRKCI (Homo sapiens, UniProt P41743)	74.3%
CHEK1 (Homo sapiens, UniProt O14757)	100%
BTK (Homo sapiens, UniProt Q06187)	27.3%
CSNK1A1 (Homo sapiens, UniProt P48729)	68.5%

Sample 3
SMILES: COc1ccc2[nH]c3c4[nH]c5ccc(OC)cc5c4c4c(c3c2c1)C(=O)NC4=O
Tested at: 1 µM
target	test	scale	remaining binding
STK38 (Homo sapiens, UniProt Q15208)	competitive binding panel, item: NDR1	reference: vehicle	57%
DYRK2 (Homo sapiens, UniProt Q92630)	competitive binding panel	reference: vehicle	50%
MKNK1 (Homo sapiens, UniProt Q9BUB5)	competitive binding panel	reference: vehicle	92%
EPHA2 (Homo sapiens, UniProt P29317)	competitive binding panel	reference: vehicle	85%
AKT1 (Homo sapiens, UniProt P31749)	competitive binding panel	reference: vehicle	72%
RAF1 (Homo sapiens, UniProt P04049)	competitive binding panel	reference: vehicle	100%
PIM2 (Homo sapiens, UniProt Q9P1W9)	competitive binding panel	reference: vehicle	0.5%
CSK (Homo sapiens, UniProt P41240)	competitive binding panel	reference: vehicle	95%
ABL1 (Homo sapiens, UniProt P00519, Y253F)	competitive binding panel	reference: vehicle	53%
NEK11 (Homo sapiens, UniProt Q8NG66)	competitive binding panel	reference: vehicle	100%
ABL1 (Homo sapiens, UniProt P00519, H396P)	competitive binding scan		34% and 65%
MAP3K5 (Homo sapiens, UniProt Q99683)	competitive binding panel, item: ASK1	reference: vehicle	83%

Sample 4
Compound: N#CC1(c2ccccn2)CCN(Cc2cc(C(=O)N3CCCC3)c(=O)n3ccccc23)CC1
Tested at: 1 µM
target	test	remaining binding [%]
CAMK2G (Homo sapiens, UniProt Q13555)	cell-free assay, competition with immobilised ligand	100
STK32B (Homo sapiens, UniProt Q9NY57)	cell-free assay, competition with immobilised ligand	100
MUSK (Homo sapiens, UniProt O15146)	cell-free assay, competition with immobilised ligand	90
DCLK1 (Homo sapiens, UniProt O15075)	cell-free assay, competition with immobilised ligand	91
MAP3K20 (Homo sapiens, UniProt Q9NYL2)	cell-free assay, competition with immobilised ligand	95
ACVRL1 (Homo sapiens, UniProt P37023)	cell-free assay, competition with immobilised ligand	100
eIF-2-alpha kinase GCN2, C-terminal kinase domain (EIF2AK4, Homo sapiens, UniProt Q9P2K8, S808G)	cell-free assay, competition with immobilised ligand	78
PRKCI (Homo sapiens, UniProt P41743)	cell-free assay, competition with immobilised ligand	87
DYRK2 (Homo sapiens, UniProt Q92630)	cell-free assay, competition with immobilised ligand	100
CDC42BPG (Homo sapiens, UniProt Q6DT37)	competition binding	88
BRSK2 (Homo sapiens, UniProt Q8IWQ3)	cell-free assay, competition with immobilised ligand	77
Tyrosine-protein kinase ABL1, non-phosphorylated (ABL1, Homo sapiens, UniProt P00519, F317I)	binding, competition with immobilised ligand	87
MARK1 (Homo sapiens, UniProt Q9P0L2)	cell-free assay, competition with immobilised ligand	100
Ribosomal protein S6 kinase alpha-6, N-terminal kinase domain (RPS6KA6, Homo sapiens, UniProt Q9UK32)	cell-free assay, competition with immobilised ligand	89
PIK3CA (Homo sapiens, UniProt P42336, I800L)	cell-free assay, competition with immobilised ligand	72
PIK3CA (Homo sapiens, UniProt P42336, M1043I)	cell-free assay, competition with immobilised ligand	72
Mast/stem cell growth factor receptor Kit, autoinhibited (KIT, Homo sapiens, UniProt P10721)	cell-free assay, competition with immobilised ligand	100
MAK (Homo sapiens, UniProt P20794)	cell-free assay, competition with immobilised ligand	93
CSNK1G3 (Homo sapiens, UniProt Q9Y6M4)	cell-free assay, competition with immobilised ligand	76
FGR (Homo sapiens, UniProt P09769)	cell-free assay, competition with immobilised ligand	100

For quick reference, copied from above (sample 1):
SMILES	remaining compound [%]
CC1CCN(CCNS(=O)(=O)c2ccc(-c3ccc(=O)[nH]n3)s2)CC1	98.5
c1ccc(-n2nnnc2Oc2ccc(-c3nc4ccccc4s3)cc2)cc1	97.1
CCCc1nn2c(N)c(C#N)nnc2c1-c1ccc(F)cc1	33.8
